# Measurements of several laboratories.
# A part holds a random share of what one study measured. “And” joins repeats or separate records; there may be more than shown.
# UniProt Q86Y07, sequence (whole entry, looked up): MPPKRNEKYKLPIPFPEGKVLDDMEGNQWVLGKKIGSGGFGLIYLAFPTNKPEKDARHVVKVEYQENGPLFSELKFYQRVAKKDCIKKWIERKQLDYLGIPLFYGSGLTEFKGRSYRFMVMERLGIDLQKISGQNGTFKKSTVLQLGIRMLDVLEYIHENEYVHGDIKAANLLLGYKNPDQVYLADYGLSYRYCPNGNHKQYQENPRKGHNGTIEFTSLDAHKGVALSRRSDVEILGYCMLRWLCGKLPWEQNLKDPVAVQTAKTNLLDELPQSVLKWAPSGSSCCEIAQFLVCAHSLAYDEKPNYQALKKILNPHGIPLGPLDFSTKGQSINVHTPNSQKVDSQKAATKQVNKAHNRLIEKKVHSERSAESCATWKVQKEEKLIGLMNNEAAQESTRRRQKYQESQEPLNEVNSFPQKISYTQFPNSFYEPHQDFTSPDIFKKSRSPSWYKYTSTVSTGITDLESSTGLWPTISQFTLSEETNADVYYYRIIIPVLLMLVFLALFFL
# UniProt P09769, sequence (whole entry, looked up): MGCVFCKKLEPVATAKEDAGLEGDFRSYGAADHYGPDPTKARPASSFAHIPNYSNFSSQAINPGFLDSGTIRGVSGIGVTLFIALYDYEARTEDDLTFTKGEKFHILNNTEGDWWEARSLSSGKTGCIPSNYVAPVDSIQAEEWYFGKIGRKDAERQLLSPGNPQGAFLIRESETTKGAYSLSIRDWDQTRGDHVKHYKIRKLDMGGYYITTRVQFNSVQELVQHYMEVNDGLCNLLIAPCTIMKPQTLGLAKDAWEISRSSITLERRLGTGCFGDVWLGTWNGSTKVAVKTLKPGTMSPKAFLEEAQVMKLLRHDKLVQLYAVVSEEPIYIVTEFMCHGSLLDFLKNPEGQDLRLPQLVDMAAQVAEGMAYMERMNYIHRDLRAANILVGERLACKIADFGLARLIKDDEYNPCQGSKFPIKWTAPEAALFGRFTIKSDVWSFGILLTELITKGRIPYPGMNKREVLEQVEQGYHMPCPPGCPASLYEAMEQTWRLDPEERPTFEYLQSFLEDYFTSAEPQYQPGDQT

# Sample 1 — cell line: HuT78; concentration: 2 µM; time: 48 h; reference: untreated
SMILES,viability
Cc1cnc(Nc2ccc(OCCN3CCCC3)cc2)nc1Nc1cccc(S(=O)(=O)NC(C)(C)C)c1,76.3%
N[C@@H]1CCCN(c2c(/C=C3\SC(=O)NC3=O)cccc2-c2ccccc2)C1,88.4%
Nc1ncnc2c1c(-c1cnc3[nH]ccc3c1)nn2C1CCCC1,40%

# Sample 2 — species: human; matrix: microsomes or S9; concentration: 2 µM; time: 0.5 h
SMILES,remaining compound [%]
O=C(Cc1ccc(N(Cc2ccccc2)C(=O)C2CCCC2)cc1)NCc1ccco1,4.83
Cc1noc(C)c1Cc1nc(-c2c(Cl)nc3sccn23)no1,12.6
Cc1cc(NCc2cn[nH]c2-c2ccccc2)ccc1Br,18.8
O=C1CCCc2nc(Nc3ccc(F)cc3)ncc21,7.22
CN1CCC2(CCN(c3cc(C(C)(C)C)nc(Cl)n3)CC2)C1=O,> 100

# Sample 3 — observed: enzyme activity; action: inhibitor; concentration: 77 µM; reference: untreated
# Target: DNA polymerase theta, ATPase domain (POLQ, Homo sapiens, UniProt O75417)
# UniProt O75417, sequence (whole entry, unmodified, looked up): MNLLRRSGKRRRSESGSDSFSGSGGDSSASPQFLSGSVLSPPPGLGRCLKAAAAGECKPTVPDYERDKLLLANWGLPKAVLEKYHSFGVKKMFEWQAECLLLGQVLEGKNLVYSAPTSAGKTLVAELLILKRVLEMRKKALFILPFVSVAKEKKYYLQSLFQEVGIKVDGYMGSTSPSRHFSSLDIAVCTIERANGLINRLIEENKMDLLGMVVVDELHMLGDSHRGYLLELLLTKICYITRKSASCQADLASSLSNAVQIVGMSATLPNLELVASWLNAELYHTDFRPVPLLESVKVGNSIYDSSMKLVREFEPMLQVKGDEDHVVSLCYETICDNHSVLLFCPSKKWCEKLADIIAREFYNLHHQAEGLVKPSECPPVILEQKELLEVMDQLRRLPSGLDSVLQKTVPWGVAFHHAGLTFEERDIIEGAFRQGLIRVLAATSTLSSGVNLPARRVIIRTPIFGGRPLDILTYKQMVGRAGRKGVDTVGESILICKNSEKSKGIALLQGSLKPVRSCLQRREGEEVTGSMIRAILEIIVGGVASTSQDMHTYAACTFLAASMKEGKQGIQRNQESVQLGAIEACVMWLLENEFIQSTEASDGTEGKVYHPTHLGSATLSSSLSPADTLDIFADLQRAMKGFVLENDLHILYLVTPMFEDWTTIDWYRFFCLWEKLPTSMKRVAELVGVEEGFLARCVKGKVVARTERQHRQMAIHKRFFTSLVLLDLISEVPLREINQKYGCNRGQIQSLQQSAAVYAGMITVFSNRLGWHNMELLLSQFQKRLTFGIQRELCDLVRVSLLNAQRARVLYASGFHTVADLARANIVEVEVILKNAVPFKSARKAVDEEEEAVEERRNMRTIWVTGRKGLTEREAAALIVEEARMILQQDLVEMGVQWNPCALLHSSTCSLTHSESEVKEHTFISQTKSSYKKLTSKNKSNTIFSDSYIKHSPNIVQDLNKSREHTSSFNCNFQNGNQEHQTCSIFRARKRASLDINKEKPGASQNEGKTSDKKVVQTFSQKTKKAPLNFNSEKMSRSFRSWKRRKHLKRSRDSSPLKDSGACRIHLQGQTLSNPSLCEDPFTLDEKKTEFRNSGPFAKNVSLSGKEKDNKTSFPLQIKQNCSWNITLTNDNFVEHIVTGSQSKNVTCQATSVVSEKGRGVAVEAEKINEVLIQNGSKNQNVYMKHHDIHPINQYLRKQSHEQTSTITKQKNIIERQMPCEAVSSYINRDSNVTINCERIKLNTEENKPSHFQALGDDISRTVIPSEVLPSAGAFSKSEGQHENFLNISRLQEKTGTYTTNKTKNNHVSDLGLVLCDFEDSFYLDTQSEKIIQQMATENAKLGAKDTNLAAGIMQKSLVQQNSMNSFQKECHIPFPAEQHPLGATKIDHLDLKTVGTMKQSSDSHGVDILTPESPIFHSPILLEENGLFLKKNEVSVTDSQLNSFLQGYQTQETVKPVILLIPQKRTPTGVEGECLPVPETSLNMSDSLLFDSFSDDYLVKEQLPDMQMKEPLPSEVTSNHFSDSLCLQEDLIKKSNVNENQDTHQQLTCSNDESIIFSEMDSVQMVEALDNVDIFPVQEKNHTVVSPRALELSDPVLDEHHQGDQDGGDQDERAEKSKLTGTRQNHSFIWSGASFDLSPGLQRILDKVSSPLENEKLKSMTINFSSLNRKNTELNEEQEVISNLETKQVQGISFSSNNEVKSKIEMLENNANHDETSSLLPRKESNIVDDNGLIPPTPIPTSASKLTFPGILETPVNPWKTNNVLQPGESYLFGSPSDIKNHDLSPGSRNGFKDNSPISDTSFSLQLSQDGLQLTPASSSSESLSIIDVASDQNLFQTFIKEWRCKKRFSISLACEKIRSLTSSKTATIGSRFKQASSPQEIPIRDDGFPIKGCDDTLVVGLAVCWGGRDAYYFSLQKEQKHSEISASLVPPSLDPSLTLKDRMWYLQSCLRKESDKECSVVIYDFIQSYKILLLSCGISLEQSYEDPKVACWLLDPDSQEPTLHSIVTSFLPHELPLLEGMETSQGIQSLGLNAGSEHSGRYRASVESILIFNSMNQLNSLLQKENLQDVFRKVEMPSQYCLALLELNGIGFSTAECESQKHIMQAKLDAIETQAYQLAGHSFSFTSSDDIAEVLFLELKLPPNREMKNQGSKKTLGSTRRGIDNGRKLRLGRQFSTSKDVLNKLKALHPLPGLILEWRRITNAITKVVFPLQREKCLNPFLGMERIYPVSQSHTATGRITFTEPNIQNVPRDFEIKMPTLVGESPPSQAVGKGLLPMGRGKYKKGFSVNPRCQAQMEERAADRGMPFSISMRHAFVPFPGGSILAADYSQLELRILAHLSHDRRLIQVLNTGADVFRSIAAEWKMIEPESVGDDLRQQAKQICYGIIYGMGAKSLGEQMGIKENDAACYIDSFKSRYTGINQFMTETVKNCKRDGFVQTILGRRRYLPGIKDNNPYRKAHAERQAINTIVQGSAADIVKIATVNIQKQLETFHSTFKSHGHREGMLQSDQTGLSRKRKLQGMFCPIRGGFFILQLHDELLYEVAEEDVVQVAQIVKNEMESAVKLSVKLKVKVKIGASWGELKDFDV
SMILES,remaining activity [%]
COc1cc2ncnc(Nc3ccc(NC(=O)c4ccccc4)cc3)c2cc1OC,90.6
CC1=C(C(=O)O)N2C(=O)[C@@H](NC(=O)[C@H](N)c3ccc(O)cc3)[C@H]2SC1,101
CN(C)CCN(Cc1ccc(Cl)cc1)c1ccccn1,103
CCCCn1c2ccc(O)cc2c2c3c(c(-c4ccccc4Cl)cc21)C(=O)NC3=O,98.3

# Sample 4 — observed: binding; concentration: 1 µM
# Structure (SMILES): CN1CCN(C(=O)c2ccc(NC(=O)Nc3ccc(N(C)c4ccnc(Nc5ccc(CS(C)(=O)=O)cc5)n4)cc3)cc2)CC1
target,assay,remaining binding [%]
"PIP4K2C (Homo sapiens, UniProt Q8TBX8)",,0.9
"CSNK1A1 (Homo sapiens, UniProt P48729)",,85
"VRK2 (Homo sapiens, UniProt Q86Y07)",competition with immobilised ligand,93
"MERTK (Homo sapiens, UniProt Q12866)",competition with immobilised ligand,56
"STK11 (Homo sapiens, UniProt Q15831)",competition with immobilised ligand,76

# Sample 5 — observed: enzyme activity; action: inhibitor; concentration: 0.5 µM; reference: control
# Target: Mitogen-activated protein kinase 1 (MAPK1, Homo sapiens, UniProt P28482)
# UniProt P28482, sequence (whole entry, looked up): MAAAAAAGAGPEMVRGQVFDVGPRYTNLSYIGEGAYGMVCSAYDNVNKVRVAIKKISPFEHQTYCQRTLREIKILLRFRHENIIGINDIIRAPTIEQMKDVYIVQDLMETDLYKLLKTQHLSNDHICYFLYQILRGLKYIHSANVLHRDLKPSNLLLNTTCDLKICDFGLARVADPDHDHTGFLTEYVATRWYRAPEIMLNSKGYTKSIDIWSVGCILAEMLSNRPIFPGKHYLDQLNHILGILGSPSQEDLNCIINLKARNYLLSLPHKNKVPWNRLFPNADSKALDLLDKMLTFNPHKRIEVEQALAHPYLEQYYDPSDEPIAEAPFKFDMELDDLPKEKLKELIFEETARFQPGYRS
SMILES,remaining activity
CN(C)c1ccc(C=C2C(=O)Nc3ccccc32)cc1,96.4%
CCOC(=O)c1c(C)[nH]c(/C=C2\C(=O)Nc3ccccc32)c1C,96.4%
Cc1cccc(-c2[nH]c(C(C)(C)C)nc2-c2ccc3c(c2)OCO3)n1,95.8%
Cn1c2ccccc2c2c3c(c4c5ccccc5n(CCC#N)c4c21)CNC3=O,104%
COc1ccc(CNC(=O)Nc2ncc([N+](=O)[O-])s2)cc1,104%
Cc1ccc(Nc2nccc(N(C)c3ccc4c(C)n(C)nc4c3)n2)cc1S(N)(=O)=O,103%
Nc1ccc2ncnc(NCCc3ccc(Oc4ccccc4)cc3)c2c1,90.1%
O=C(O)c1ccc2c3c1cccc3c(=O)n1c3ccccc3nc21,100%
CC(C)[C@H](CO)Nc1nc(Nc2cc(N)cc(Cl)c2)c2ncn(C(C)C)c2n1,95.4%
NCCNc1ncc(C(N)=O)c(Nc2cccc(C(F)(F)F)c2)n1,94.3%
CO[C@H]1C[C@@H]2CC[C@@H](C)[C@@](O)(O2)C(=O)C(=O)N2CCCC[C@H]2C(=O)O[C@H]([C@H](C)C[C@@H]2CC[C@@H](O)[C@H](OC)C2)CC(=O)[C@H](C)/C=C(\C)[C@@H](O)[C@@H](OC)C(=O)[C@H](C)C[C@H](C)/C=C/C=C/C=C/1C,101%
O=C1NC(=O)C(c2cn(CCCO)c3ncccc23)=C1c1cnccn1,81.9%
COc1ccc(C(=O)Nc2sc3c(c2C(N)=O)CCCC3)cc1OC,91.2%
Nc1ncnc2n[nH]c(Nc3ccc(F)cc3)c12,80.8%
N#CC(C#N)=C(N)/C(C#N)=C/c1ccc(O)cc1,101%
O=c1c2ccccc2[nH]c(=S)n1CCN1CCC(=C(c2ccc(F)cc2)c2ccc(F)cc2)CC1,102%
Oc1ccc(-c2nc(-c3ccncc3)c(-c3ccc(F)cc3)[nH]2)cc1,97.2%
COc1cc2nccc(Oc3ccc(NC(=S)NC(=O)c4ccccc4C)cc3)c2cc1OC,89.3%
O=S(=O)(c1cccc2cnccc12)N1CCCNCC1,98.1%
COc1cc2ncnc(Nc3ccc(Oc4ccccc4)cc3)c2cc1OC,99.8%
O=C(Nc1cccc(Nc2cc(Nc3cccc(C(F)(F)F)c3)ncn2)c1)C1CC1,101%
Nc1[nH]nc2nc3ccccc3nc12,100%
OCC(O)CCON=C1C(c2c(O)[nH]c3ccccc23)=Nc2ccccc21 (centres unmarked),89.8%
COc1ccc(OC)c2c(=S)c3ccccc3[nH]c12,91.5%
C#Cc1cccc(Nc2ncnc3cc(OCCOC)c(OCCOC)cc23)c1,116%

# Sample 6 — cell line: THP-1
# Structure (SMILES): CCCCCCCCCCCCCCCCOP(=O)([O-])OCC[N+](C)(C)C
assay,setting,inhibition
host cell growth,0.04 µM,4.35% and 1.55% and -0.32% and -3.65% and -0.23% and 2.55%
,"10 µM, cytotoxicity",30%
host cell growth,0.1 µM,-0.53% and -0.95% and -0.24% and -0.19% and -2.94% and -1.44%

# Sample 7 — observed: cell-free assay; technique: competition with immobilised ligand; concentration: 1 µM
# Structure (SMILES): CC(=O)C1=C(C)N(c2cccc(C(F)(F)F)c2)C(=O)N[C@@H]1c1ccc(C#N)nc1
target,remaining binding [%]
"FGR (Homo sapiens, UniProt P09769)",86.7
"FLT3 (Homo sapiens, UniProt P36888)",100
"MAP3K20 (Homo sapiens, UniProt Q9NYL2)",96.9
"ABL2 (Homo sapiens, UniProt P42684)",100
"RIOK3 (Homo sapiens, UniProt O14730)",100

# Repeated from above (sample 7):
target,remaining binding [%]
"FGR (Homo sapiens, UniProt P09769)",86.7
"FLT3 (Homo sapiens, UniProt P36888)",100
"MAP3K20 (Homo sapiens, UniProt Q9NYL2)",96.9
"ABL2 (Homo sapiens, UniProt P42684)",100
"RIOK3 (Homo sapiens, UniProt O14730)",100
